Measured values gathered from unrelated publications.
A part holds a random share of what one study measured. Changes are numbered by the printed parent chain.

Series 1 — technique: RNA Bind-n-Seq; molecule type: RNA; medium: in vitro; concentration: 200 nM; notes: whole 134-nt RNA, ends assumed; added: 150 mM KCl; relative to: input library; reading: higher = stronger binding; measurement: log2 enrichment
Target: Fragile X messenger ribonucleoprotein 1, C-terminal low-complexity region (Fmr1, Mus musculus, UniProt P35922)
All sequences stand within: GGGAGUUCUACAGUCCGACGAUC … UGGAAUUCUCGGGUGUCAAGG
UCAAGUCCUGUGCUACACAUCGUAUGUACCGAAUCGGUUUUUUUGGUUUGGAGGAAAGUAUUAUGUUACGCCGUUCGGAUCUGCACUUCC: -0.655
UCCUGUGCUACACAUCGUAUGUACCGAAUCGGUUUUUUUGGUUUUUUUGGUUUUUUUGGAAAGUAUUAUGUUACGCCGUUCGGAUCUGCA: -0.145
UGACCUGCACGGACAUCAACACCCUGACAAGGCAGAAGGAACUUCUCCUGCAGAAGCUGAGCACAUUUGAGGAGACCAACCGCACCCUCC: 0.755
GUCCUGUGCUACACAUCGUAUGUACCGAAUCGGGGAAAAAGGGGAAAGGGGAAAGGGGAAAGUAUUAUGUUACGCCGUUCGGAUCUGCAC: 0.447
UAACUUUAGAGGAGGAUCUGAUGGAUAUGGCAGUGGACGUGGAUUUGGGGAUGGCUAUAAUGGGUAUGGGGGAGGACCUGGAGGUGGCAA: 0.209
GCAGGAAGUAAAAACAAAUGGAAAUGCUUCGGAUAGUGGCAGGGGUGGGGGUUGCUAAGGAAAGGGAGGGAUGGGAGUGGGUAAAGAGUU: 0.196
GUCCUGUGCUACACAUCGUAUGUACCGAAUCGGUUUUUGGUUUUUGGGGUUUUUGGGGAAAGUAUUAUGUUACGCCGUUCGGAUCUGCAC: -0.346
CACAGACAACACGCACCCACACAGACACAGAGGGAAGGGGUUAGGAUGGGGACAGGGUGCACAGCAGGGCGGGGUAGGACCCCAGCCCCU: 1.17
CCUGUGCUACACAUCGUAUGUACCGAAUCGGGGUUUUUUGGGGUUUUUUGGGUUUUUUGGGAAAGUAUUAUGUUACGCCGUUCGGAUCUG: -0.412
UGCUGGAGAUGCAAUAUAUGAGGUGGUGAGUCUACAGCGAGAGUCUGACAAGGAGGAACCAGUCACUCCUACUAGUGGAGGGGGUCCAAU: -1.91
UAACUUUAGAGGAGGAUCUGAUGGAUAUGGCAGUGGACGUGGAUUUGGGGAUGGCUAUAAUGGGUAUAGAGGAGGACCUGGAGGUGGCAA: 0.245
UAACUUUAGAGGAGGAUCUGAUGGAUAUGGCAGUGGACGUGGAUUUGGGGAUGGCUAUUAUGGGUAUGGAGGAGGACCUGGAGGUGGCAA: 0.336
AAGUCCUGUGCUACACAUCGUAUGUACCGAAUCGGGGUGGGGUGGGGAAAAAGGGGAAAGUAUUAUGUUACGCCGUUCGGAUCUGCACUU: 0.989
CUCAAGUCCUGUGCUACACAUCGUAUGUACCGAAUCGGAAAGGAAAGGAAAGGAAAGUAUUAUGUUACGCCGUUCGGAUCUGCACUUCCA: -0.351

Series 2 — target: CCNA1, cyclin fold, Cln2 fusion (human); technique: yeast growth competition, sequencing; medium: yeast; notes: weak parent motif; relative to: not given; reading: higher = stronger binding; measurement: normalised enrichment score
Starting sequence: MASTL docking peptide (human); PMIAKNLMCELDE; partner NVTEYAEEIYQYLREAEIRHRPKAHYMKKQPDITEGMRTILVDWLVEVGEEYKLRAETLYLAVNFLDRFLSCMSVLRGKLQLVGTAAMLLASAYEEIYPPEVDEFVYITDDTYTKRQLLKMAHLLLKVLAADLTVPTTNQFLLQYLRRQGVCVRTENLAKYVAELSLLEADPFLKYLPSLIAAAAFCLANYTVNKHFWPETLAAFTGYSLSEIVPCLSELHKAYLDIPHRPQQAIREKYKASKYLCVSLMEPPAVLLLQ
L7F: -0.0136
D12S: 0.169
A4V: 0.109
I3S: -0.219
C9E: -0.0451
K5T: -0.129
M2W: 0.0744
I3R: 0.00404
L11F: -0.33
D12Y: -0.393
L7G: -0.571
A4W: 0.643
N6V: 0.197
K5R: 0.0721
M8P: 0.473
M8T: -0.126
C9F: 0.76
M2Q: 0.426
N6R: 0.5
K5D: 0.0553
K5E: -0.0141
E10Y: 0.348

Series 3 — technique: protein-binding microarray; molecule type: double-stranded DNA, one strand shown; medium: in vitro; concentration: 2200 nM top; notes: 60-bp whole probe; added: salmon DNA 0.4 mg/ml; relative to: random background probes; reading: higher = stronger binding; measurement: fitted relative affinity; all sequences stand within: GCCTAGCAC … GTCTTGATTCGCTTGACGCTGCTG
Target: Interferon regulatory factor 7, full length, phosphomimetic (IRF7, Homo sapiens, UniProt Q92985, residues 1-503, S471D/S472D/S475D/S476D/S477D/S483D/S484D/S487D)
Sequence of UniProt Q92985 (whole entry, unmodified, looked up): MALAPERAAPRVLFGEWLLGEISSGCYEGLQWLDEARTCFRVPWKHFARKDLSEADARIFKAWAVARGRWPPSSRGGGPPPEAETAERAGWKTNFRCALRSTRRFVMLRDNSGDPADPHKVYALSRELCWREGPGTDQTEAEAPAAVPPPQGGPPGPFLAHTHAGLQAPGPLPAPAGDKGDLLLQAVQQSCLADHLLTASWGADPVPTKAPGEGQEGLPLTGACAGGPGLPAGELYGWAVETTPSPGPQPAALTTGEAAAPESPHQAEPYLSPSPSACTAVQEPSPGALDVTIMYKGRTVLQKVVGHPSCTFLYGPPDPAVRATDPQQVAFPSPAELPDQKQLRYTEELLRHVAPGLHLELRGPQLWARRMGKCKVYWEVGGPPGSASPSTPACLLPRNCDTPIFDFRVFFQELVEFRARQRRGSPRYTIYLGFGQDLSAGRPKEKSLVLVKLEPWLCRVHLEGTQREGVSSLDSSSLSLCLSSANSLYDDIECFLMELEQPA
GCTGCCCTCACCATCATCCTGTGCTAG: 0.896 z-score
GACGATCTCAGACTGGGGACGTGCTAG: -0.0609 z-score
TCAAATTCCAAGTTCATACTGTGCTAG: 0.486 z-score
GACGGAATCCTTATCCTGACGTGCTAG: 0.695 z-score
TCAAGTTTTAATAACACACTGTGCTAG: -0.078 z-score
TTATGTTTCGGTTCCGGTTAGTGCTAG: 9.79 z-score
TCAGAACTGAGTCTCGATTAGTGCTAG: 0.000429 z-score
GACGAACTGGGGTTTCGAGTCGTGCTA: 3.1 z-score
CTCATTCTCCACTTGTGTTTGTGCTAG: 2.58 z-score
TTAGGTTTCCACTATCGGTTAGTGCTA: 1.8 z-score
TTCGGACTGCTTCTCCTTTAGTGCTAG: 1.15 z-score
CCGGGGGGCACAGGGTGAGGGTGCTAG: 1.27 z-score
TCATTGATGGCTCTCTGACTGTGCTAG: 0.303 z-score
TTAGGTTTCGGACTGGGTCAGTGCTAG: 3.25 z-score
TCATCTTTTCTTTTCTTACTGTGCTAG: 4 z-score
GACGATTTCGAGACTGGAGACGTGCTA: 1.33 z-score
GACGGACTGGGGTTTCGGGATGTGCTA: 1.01 z-score
TCAGAACTGTTTCTTGAACTGTGCTAG: 0.514 z-score

Series 4 — technique: universal PBM; molecule type: double-stranded DNA, one strand shown; medium: in vitro; concentration: not given; reading: higher = stronger binding; measurement: E-score
Target: Sal-like protein 4, full length isoform B (SALL4, Homo sapiens, UniProt Q9UJQ4-2, residues 1-616)
Notes: 8-mer, flanks averaged, mean of replicates
Construct (chain): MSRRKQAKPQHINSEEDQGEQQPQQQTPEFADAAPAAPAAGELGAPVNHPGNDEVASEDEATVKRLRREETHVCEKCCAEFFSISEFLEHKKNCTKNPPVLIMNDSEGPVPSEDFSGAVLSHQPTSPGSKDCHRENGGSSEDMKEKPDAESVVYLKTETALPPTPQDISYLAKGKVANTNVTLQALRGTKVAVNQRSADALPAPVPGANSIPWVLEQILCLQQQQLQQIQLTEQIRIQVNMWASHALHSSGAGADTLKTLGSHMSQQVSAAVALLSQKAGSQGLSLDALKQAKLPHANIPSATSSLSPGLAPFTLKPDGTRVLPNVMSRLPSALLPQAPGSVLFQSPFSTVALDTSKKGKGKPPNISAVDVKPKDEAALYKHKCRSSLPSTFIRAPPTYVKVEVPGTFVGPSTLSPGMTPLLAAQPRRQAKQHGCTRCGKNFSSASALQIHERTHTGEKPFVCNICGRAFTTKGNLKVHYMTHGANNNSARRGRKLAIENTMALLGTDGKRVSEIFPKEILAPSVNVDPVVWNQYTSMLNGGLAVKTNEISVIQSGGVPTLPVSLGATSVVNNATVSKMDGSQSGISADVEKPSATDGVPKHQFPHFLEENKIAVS
GCGGGAAA: -0.0258
AACAAACG: 0.00618
GGGGGTTA: -0.0227
CGCTATAC: 0.0509
AACTGTCC: -0.273
TCTATCAA: 0.194
ATGGATGG: -0.0258
ACTGCGTC: -0.0314
CGCATAGA: -0.109
AATGACAT: 0.183
CACGACAC: -0.0342
ATCTACAC: 0.0599
CAAAAGAC: 0.0755
GAAGTTAC: -0.0113
GTCCTCAA: -0.00929
CGTCTTTC: 0.0546
ATATTCTG: 0.283
GCACTTAC: -0.0273
GGTCCTAC: -0.241
TCTCATCA: 0.113
TCAAAGGA: 0.0902
AAGCCCCA: -0.267
GACGCCAC: -0.253
TGCGATAA: 0.244
CCCGCGCC: -0.289

Series 5 — technique: DHFR PCA, deep sequencing; medium: yeast; added: (+)-ABA 0 µM; relative to: wild-type fitted maximum; reading: higher = stronger binding; measurement: relative binding score
Target: ABI1, truncated, D143A, DHFR fusion (Arabidopsis thaliana)
Notes: methotrexate growth selection, single substitutions
Starting sequence: PYL1, truncated, DHFR fusion (Arabidopsis thaliana); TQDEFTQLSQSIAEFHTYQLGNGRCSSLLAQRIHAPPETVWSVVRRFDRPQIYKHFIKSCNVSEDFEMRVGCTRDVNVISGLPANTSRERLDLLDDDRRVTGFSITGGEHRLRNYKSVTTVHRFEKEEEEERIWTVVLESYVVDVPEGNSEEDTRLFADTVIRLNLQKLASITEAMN
R98K: 27.5%
H55E: 25.6%
F66S: -0.279%
S63T: 16.1%
I12T: 2.45%
L138C: 3.53%
Y115I: 0.373%
I172C: 1.27%
I105N: -1.12%
S171A: 36.9%
E67V: 37.7%
V145P: -13.6%
T173V: 9.11%
Q31P: -4.21%

Series 6 — technique: protein binding microarray; molecule type: double-stranded DNA, one strand shown; medium: in vitro; concentration: not given; relative to: not given; reading: higher = stronger binding; measurement: E-score
Target: Histone acetyltransferase KAT6A, winged helix 1, GST fusion (KAT6A, Homo sapiens, UniProt Q92794, residues 1-85)
Notes: 8-mer, flanks averaged, mean of 2 arrays, mostly near background
Construct (chain): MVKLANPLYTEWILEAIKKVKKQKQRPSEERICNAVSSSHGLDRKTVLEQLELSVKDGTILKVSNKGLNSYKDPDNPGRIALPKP
ACTGTCGC: 0.167
AGCTGCCG: 0.291
AGCAAGAG: -0.294
ACGATCCA: -0.222
AGTAATAA: -0.0198
ACCTCATC: -0.259
CCCGGAAA: 0.199
ACCGCAGT: 0.0882
ACAAGTGG: -0.163
CAGAGCTA: -0.0617
ACCCATCC: -0.035
AGGGTTTC: -0.0767
GAACTCTA: -0.25
ACCGATGA: 0.0333
CCAGGTAC: -0.178
AGAGGCTC: -0.162
ACCTCGAA: -0.265
CATCTGCG: 0.127
GTATCTAA: 0.00995
ACTATTCT: -0.011

Series 7 — technique: RNA Bind-n-Seq; molecule type: RNA; medium: in vitro; concentration: 20 nM; notes: 6-mer, flanks averaged, single round; added: 150 mM LiCl; relative to: input library; reading: higher = stronger binding; measurement: 6-mer enrichment (R)
Target: TAR DNA-binding protein 43, full length, His tag (TARDBP, Homo sapiens, UniProt Q13148, residues 1-414)
UCACCG: 0.853
UGCUCA: 0.869
AAAUGA: 0.855
UCCUUC: 0.907
UCCACA: 0.869
CAAGGC: 0.847
AGACGU: 0.897
CGCUCG: 0.833
CGUGCC: 0.981
ACGAGA: 0.849
CUCACU: 0.868
GCAGCG: 1.04
GAGUAA: 0.959
UUAGUG: 1.23
CUAAUG: 0.905

For quick reference, copied from above (series 1):
UCCUGUGCUACACAUCGUAUGUACCGAAUCGGUUUUUUUGGUUUUUUUGGUUUUUUUGGAAAGUAUUAUGUUACGCCGUUCGGAUCUGCA: -0.145
UGACCUGCACGGACAUCAACACCCUGACAAGGCAGAAGGAACUUCUCCUGCAGAAGCUGAGCACAUUUGAGGAGACCAACCGCACCCUCC: 0.755
GUCCUGUGCUACACAUCGUAUGUACCGAAUCGGGGAAAAAGGGGAAAGGGGAAAGGGGAAAGUAUUAUGUUACGCCGUUCGGAUCUGCAC: 0.447
UAACUUUAGAGGAGGAUCUGAUGGAUAUGGCAGUGGACGUGGAUUUGGGGAUGGCUAUAAUGGGUAUGGGGGAGGACCUGGAGGUGGCAA: 0.209
GCAGGAAGUAAAAACAAAUGGAAAUGCUUCGGAUAGUGGCAGGGGUGGGGGUUGCUAAGGAAAGGGAGGGAUGGGAGUGGGUAAAGAGUU: 0.196
GUCCUGUGCUACACAUCGUAUGUACCGAAUCGGUUUUUGGUUUUUGGGGUUUUUGGGGAAAGUAUUAUGUUACGCCGUUCGGAUCUGCAC: -0.346
CACAGACAACACGCACCCACACAGACACAGAGGGAAGGGGUUAGGAUGGGGACAGGGUGCACAGCAGGGCGGGGUAGGACCCCAGCCCCU: 1.17
CCUGUGCUACACAUCGUAUGUACCGAAUCGGGGUUUUUUGGGGUUUUUUGGGUUUUUUGGGAAAGUAUUAUGUUACGCCGUUCGGAUCUG: -0.412
